Published values of several laboratories.
A part holds a random share of what one study measured.
UniProt P19784, sequence (whole entry, looked up): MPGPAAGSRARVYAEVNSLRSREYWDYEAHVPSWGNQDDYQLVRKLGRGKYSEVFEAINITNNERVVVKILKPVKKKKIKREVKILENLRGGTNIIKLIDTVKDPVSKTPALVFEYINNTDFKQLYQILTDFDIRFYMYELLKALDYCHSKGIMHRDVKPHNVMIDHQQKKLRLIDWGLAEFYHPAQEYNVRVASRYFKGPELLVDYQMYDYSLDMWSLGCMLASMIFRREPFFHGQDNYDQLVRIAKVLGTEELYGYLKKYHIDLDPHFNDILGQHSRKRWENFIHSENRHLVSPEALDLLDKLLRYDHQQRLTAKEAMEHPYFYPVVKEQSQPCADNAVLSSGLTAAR
UniProt O75716, sequence (whole entry, looked up): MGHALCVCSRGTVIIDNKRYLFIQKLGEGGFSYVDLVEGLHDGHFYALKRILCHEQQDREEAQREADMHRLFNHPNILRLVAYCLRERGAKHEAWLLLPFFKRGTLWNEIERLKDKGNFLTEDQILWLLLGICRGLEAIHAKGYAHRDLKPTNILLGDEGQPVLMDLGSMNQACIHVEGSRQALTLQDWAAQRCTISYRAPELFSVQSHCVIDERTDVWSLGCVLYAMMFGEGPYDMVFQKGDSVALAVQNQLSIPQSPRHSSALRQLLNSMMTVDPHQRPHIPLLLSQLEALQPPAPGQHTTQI
UniProt O75676, sequence (whole entry, looked up): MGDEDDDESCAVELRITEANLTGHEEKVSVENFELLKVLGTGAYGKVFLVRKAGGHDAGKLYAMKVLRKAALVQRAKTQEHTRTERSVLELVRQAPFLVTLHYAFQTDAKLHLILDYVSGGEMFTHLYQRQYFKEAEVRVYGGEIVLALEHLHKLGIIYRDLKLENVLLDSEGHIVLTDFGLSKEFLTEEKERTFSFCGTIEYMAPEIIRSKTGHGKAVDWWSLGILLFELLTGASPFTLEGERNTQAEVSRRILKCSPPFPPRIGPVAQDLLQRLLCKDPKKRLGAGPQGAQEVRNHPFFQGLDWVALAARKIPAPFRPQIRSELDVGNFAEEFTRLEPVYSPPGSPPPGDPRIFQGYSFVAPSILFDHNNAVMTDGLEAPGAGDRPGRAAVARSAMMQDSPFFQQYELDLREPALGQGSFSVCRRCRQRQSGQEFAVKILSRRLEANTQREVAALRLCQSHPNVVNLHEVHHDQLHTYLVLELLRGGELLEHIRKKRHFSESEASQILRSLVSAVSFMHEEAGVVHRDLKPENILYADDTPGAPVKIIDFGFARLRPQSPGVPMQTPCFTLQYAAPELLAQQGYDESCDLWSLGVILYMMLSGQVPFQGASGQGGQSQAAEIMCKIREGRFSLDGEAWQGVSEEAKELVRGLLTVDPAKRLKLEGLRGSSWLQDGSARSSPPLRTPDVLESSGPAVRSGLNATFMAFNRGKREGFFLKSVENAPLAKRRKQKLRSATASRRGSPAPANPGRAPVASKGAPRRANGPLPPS
UniProt P42336, sequence (whole entry, unmodified, looked up): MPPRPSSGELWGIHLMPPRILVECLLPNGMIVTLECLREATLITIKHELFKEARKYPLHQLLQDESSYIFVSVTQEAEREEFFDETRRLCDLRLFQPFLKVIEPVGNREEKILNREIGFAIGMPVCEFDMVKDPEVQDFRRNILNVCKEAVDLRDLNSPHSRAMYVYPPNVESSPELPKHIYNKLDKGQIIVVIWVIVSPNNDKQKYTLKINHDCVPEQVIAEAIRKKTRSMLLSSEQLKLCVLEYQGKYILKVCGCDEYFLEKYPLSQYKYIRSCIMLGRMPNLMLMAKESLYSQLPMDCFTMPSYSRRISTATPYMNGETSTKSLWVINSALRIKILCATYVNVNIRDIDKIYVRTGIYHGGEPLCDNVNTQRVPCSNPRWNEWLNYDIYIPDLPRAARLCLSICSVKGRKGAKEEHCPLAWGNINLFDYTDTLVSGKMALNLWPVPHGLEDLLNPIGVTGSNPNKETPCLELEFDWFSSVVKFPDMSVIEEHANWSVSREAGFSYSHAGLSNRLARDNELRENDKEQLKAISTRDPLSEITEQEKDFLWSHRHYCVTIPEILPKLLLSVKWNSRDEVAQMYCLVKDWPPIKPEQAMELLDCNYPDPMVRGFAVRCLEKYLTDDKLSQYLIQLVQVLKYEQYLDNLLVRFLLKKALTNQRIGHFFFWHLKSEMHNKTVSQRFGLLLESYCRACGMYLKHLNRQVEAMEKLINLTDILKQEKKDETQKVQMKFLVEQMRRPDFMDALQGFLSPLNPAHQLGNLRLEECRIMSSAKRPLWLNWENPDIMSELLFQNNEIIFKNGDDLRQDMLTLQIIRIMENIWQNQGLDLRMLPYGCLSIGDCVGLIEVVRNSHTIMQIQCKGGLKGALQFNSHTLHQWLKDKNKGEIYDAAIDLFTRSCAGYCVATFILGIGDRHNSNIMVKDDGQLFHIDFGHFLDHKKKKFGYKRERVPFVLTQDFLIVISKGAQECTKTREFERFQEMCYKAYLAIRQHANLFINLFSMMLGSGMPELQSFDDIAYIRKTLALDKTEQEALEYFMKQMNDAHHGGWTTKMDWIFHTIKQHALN

Block 1 — observed: cell-free assay; technique: competition with immobilised ligand; concentration: 1 µM
SMILES: Cc1nc(Cc2cccc(C(F)(F)F)c2)sc1-c1ccc(C(N)=O)nc1
| target | remaining binding [%] |
| --- | --- |
| Ribosomal protein S6 kinase alpha-4, N-terminal kinase domain (RPS6KA4, Homo sapiens, UniProt O75676) | 82 |
| CSNK2A2 (Homo sapiens, UniProt P19784) | 96 |
| STK16 (Homo sapiens, UniProt O75716) | 100 |
| PIK3CA (Homo sapiens, UniProt P42336, Q546K) | 86 |

Block 2 — technique: universal PBM; form: double-stranded DNA, one strand shown; matrix: in vitro; concentration: not given; direction: higher = stronger binding
Target: Sal-like protein 4, full length isoform B (SALL4, Homo sapiens, UniProt Q9UJQ4-2, residues 1-616)
Notes: 8-mer, flanks averaged, mean of replicates
| Sequence | E-score |
| --- | --- |
| ACTAGGCC | -0.234 |
| CCAAACGC | -0.205 |
| GCAAGCCA | -0.24 |
| CTGGCCTA | -0.114 |
| AATAGGCA | 0.269 |
| ACGAGCGT | -0.125 |
| AGGGCATA | 0.144 |
| GCAATCCA | 0.026 |

Single results of other studies
| Substance | target or system | technique | matrix | notes | together with | endpoint | value |
| --- | --- | --- | --- | --- | --- | --- | --- |
| CDK2AP2 (Homo sapiens, UniProt O75956) | CHD4 (Homo sapiens, UniProt Q14839) | cross-linking MS |  | hits only |  | interaction screen | cross-linked |
| CCC[C@@H]1NC(=O)CSC[C@@H](C(=O)OCC)N(C)C(=O)[C@H](CC(C)C)NC(=O)[C@@H](C)N(C)C(=O)[C@H](CC(C)C)NC(=O)[C@H](C)N(C)C(=O)[C@@H]2CCCN2C(=O)[C@@H](CC(C)C)NC(=O)CN(CCC)C1=O |  |  | hydrocarbon/water |  |  | logD | 0.418 |
| MPHOSPH10 (Homo sapiens, UniProt O00566) | NOP14 (Homo sapiens, UniProt P78316) | cross-linking MS | cell fractions |  | DMTMM | cross-linked residues | E419 to K26 |
| GOLGB1 (Homo sapiens, UniProt Q14789) | BEND3 (Homo sapiens, UniProt Q5T5X7) | cross-linking MS | cell fractions |  | DSSO | cross-linked residues | K3002 to S556 |
| ARID2 (Homo sapiens, UniProt Q68CP9) | SMARCD2 (Homo sapiens, UniProt Q92925) | cross-linking MS | cell fractions |  | DSSO | cross-linked residues | K275 to K480 |

Some of these lines once more (block 2):
| Sequence | E-score |
| --- | --- |
| GCAAGCCA | -0.24 |
| GCAATCCA | 0.026 |
| ACTAGGCC | -0.234 |
